# Assay results from different studies.
# Compare with care: the assays were run in different laboratories. Numbers after ± are the reported error.
# Method: steady-state kinetics
# B1: CDO (Bacillus subtilis, UniProt O32085); chain MELYECIQDIFGGLKNPSVKDLATSLKQIPNAAKLSQPYIKEPDQYAYGRNAIYRNNELEIIVINIPPNKETTVHDHGQSIGCAMVLEGKLLNSIYRSTGEHAELSNSYFVHEGECLISTKGLIHKMSNPTSERMVSLHVYSPPLEDMTVFEEQKEVLENS
# B2: protein (Rheum palmatum, UniProt A0A7L9A2S6); chain MKKTELVFLPAPAPGHLVSTVEFSKRLIARDARLTVTILVISSPFSRGAQTNPSPGIRYVTLPQVDVPQHLMKDSIEHTISVYIASHAPHVRDAVAALQTESTVHVAGLFLDMFCTPMIDVANELGLPSYVFFCSSAGFLGLLLHLPVHSQPRFDETGLDVLIPSFQNPVPTRVLPRFGFNELGYKSFMDHAKRFGETKGIIINTYAELEPYALKSLLDAYDTAPVYAVGPVLDLRSQVHMPCDAAERARIMGWLDKQPDSSVVFLCFGSGGSFSEHQIREISKGLSQSGQRFLWSVRKPPTGGLVKPTEYTETELRSVLGDEFWSLLDEGERGVVCGWAPQVEVLGHKSVGAFVSHCGWNSTLESLWFGKPMVTWPLYAEQQMNAFELVKELGIAVELTLDYRLHSSEVVEAREVERAVRRVMDENNPVRYKVKEMAEVCRATLVEGGSSFVCVDRLISGFLGEIN
# B3: carbamoyl phosphate synthetase large subunit M378E (Escherichia coli, UniProt P00968); chain PKRTDIKSILILGAGPIVIGQACEFDYSGAQACKALREEGYRVILVNSNPATIMTDPEMADATYIEPIHWEVVRKIIEKERPDAVLPTMGGQTALNCALELERQGVLEEFGVTMIGATADAIDKAEDRRRFDVAMKKIGLETARSGIAHTMEEALAVAADVGFPCIIRPSFTMGGSGGGIAYNREEFEEICARGLDLSPTKELLIDESLIGWKEYEMEVVRDKNDNCIIVCSIENFDAMGIHTGDSITVAPAQTLTDKEYQIMRNASMAVLREIGVETGGSNVQFAVNPKNGRLIVIEMNPRVSRSSALASKATGFPIAKVAAKLAVGYTLDELMNDITGGRTPASFEPSIDYVVTKIPRFNFEKFAGANDRLTTQEKSVGEVMAIGRTQQESLQKALRGLEVGATGFDPKVSLDDPEALTKIRRELKDAGADRIWYIADAFRAGLSVDGVFNLTNIDRWFLVQIEELVRLEEKVAEVGITGLNADFLRQLKRKGFADARLAKLAGVREAEIRKLRDQYDLHPVYKRVDTCAAEFATDTAYMYSTYEEECEANPSTDREKIMVLGGGPNRIGQGIEFDYCCVHASLALREDGYETIMVNCNPETVSTDYDTSDRLYFEPVTLEDVLEIVRIEKPKGVIVQYGGQTPLKLARALEAAGVPVIGTSPDAIDRAEDRERFQHAVERLKLKQPANATVTAIEMAVEKAKEIGYPLVVRPSYVLGGRAMEIVYDEADLRRYFQTAVSVSNDAPVLLDHFLDDAVEVDVDAICDGEMVLIGGIMEHIEQAGVHSGDSACSLPAYTLSQEIQDVMRQQVQKLAFELQVRGLMNVQFAVKNNEVYLIEVNPRAARTVPFVSKATGVPLAKVAARVMAGKSLAEQGVTKEVIPPYYSVKEVVLPFNKFPGVDPLLGPEMRSTGEVMGVGRTFAEAFAKAQLGSNSTMKKHGRALLSVREGDKERVVDLAAKLLKQGFELDATHGTAIVLGEAGINPRLVNKVHEGRPHIQDRIKNGEYTYIINTTSGRRAIEDSRVIRRSALQYKVHYDTTLNGGFATAMALNADATEKVISVQEMHAQIK
# B4: protein G95D/P94L (Streptomyces coelicolor, UniProt P16544); chain MATQDSEVALVTGATSGIGLEIARRLGKEGLRVFVCARGEEGLRTTLKELREAGVEADGRTCDVRSVPEIEALVAAVVERYGPVDVLVNNAGRLDGGATAELADELWLDVVETNLTGVFRVTKQVLKAGGMLERGTGRIVNIASTGGKQGVVHAAPYSASKHGVVGFTKALGLELARTGITVNAVCPGFVETPMAASVREHYSDIWEVSTEEAFDRITARVPIGRYVQPSEVAEMVAYLIGPGAAAVTAQALNVCGGLGNY
# B5: Tcur_2987 W263A (Thermomonospora curvata, UniProt D1A807); chain ACSEERAAGARPSATQTTGTATEPFHGPHQAGIATPPQAHAVFLGLDLRKGTGRKELGRLMRLLTDDARRLTQGRPALADPEPDLAPLPSRLTFTFGFGPGLFKAAGLEKQRPEGLRPLPPFKVDRLEDRWSGGDLLVQICCDDPITLAHALRMTVKDARAFTRVRWVQRGFRRSPGVQSSGATQRNLMGQLDGTVNPVPGTADFDQAVWVQDGPEWLRGGTTLVLRRIRMELEKADEADPAGKEFAVGRRLTSGAPLTGRHEHDEPDFDAVDSAGFPVIAENAHIRLAHVDSPRLRMLRRPYNYDEGLTADGRSDAGLLFAAYQADIDRQFIPVQRRLDEGGDLLNLWTTPIGSAVFAIPPGCDENGWIGQGLLG
# B6: Paox (Mus musculus, UniProt Q8C0L6); chain MAFPGPRVLVVGSGIAGLGAAQKLCSHRAAPHLRVLEATASAGGRIRSERCFGGVVELGAHWIHGPSQDNPVFQLAAEFGLLGEKELSEENQLVDTGGHVALPSMIWSSSGTSVSLELMTEMARLFYGLIERTREFLNESETPMASVGEFLKKEISQQVASWTEDDEDTRKRKLAILNTFFNIECCVSGTHSMDLVALAPFGEYTVLPGLDCILAGGYQGLTDRILASLPKDTVAFDKPVKTIHWNGSFQEAAFPGETFPVLVECEDGARLPAHHVIVTVPLGFLKEHQDTFFEPPLPAKKAEAIKKLGFGTNNKIFLEFEEPFWEPDCQFIQVVWEDTSPLQDTALSLQDTWFKKLIGFLVQPSFESSHVLCGFIAGLESEFMETLSDEEVLLSLTQVLRRVTGNPQLPAAKSVRRSQWHSAPYTRGSYSYVAVGSTGDDLDLMAQPLPEDGTGTQLQVLFAGEATHRTFYSTTHGALLSGWREADRLVSLWDSQVEQSRPRL
# B7: enzyme A178R/D177A/G159A/M179S/P184R (Levilactobacillus brevis, UniProt Q03Q85); chain MKVTVVGCTHAGTFAIKQILAEHPDAEVTVYERNDVISFLSCGIALYLGGKVADPQGLFYSSPEELQKLGANVQMNHNVLAIDPDQKTVTVEDLTNHAQTTESYDKLVMTSGSWPIVPKIPGIDSDRVKLCKNWAHAQALIEDAKEAKRITVIGAGYIAAELAEAYSTTGHDVTLIARSARVMRKYFDADFTDVIEQDYRDHGVQLALGETVESFTDSATGLTIKTDKNSYETDLAILCIGFRPNTDLLKGKVDMAPNGAIITDDYMRSSNPDIFAAGDSAAVHYNPTHQNAYIPLATNAVRQGILVGKNLVKPTVKYMGTQSSSGLALYDRTIVSTGLTLAAAKQQGLNAEQVIVEDNYRPEFMPSTEPVLMSLVFDPDTHRILGGALMSKYDVSQSANTLSVCIQNENTIDDLAMVDMLFQPNFDRPFNYLNILAQAAQAKVAQSVNA
# B8: DGKE (Homo sapiens, UniProt P52429); chain MEAERRPAPGSPSEGLFADGHLILWTLCSVLLPVFITFWCSLQRSRRQLHRRDIFRKSKHGWRDTDLFSQPTYCCVCAQHILQGAFCDCCGLRVDEGCLRKADKRFQCKEIMLKNDTKVLDAMPHHWIRGNVPLCSYCMVCKQQCGCQPKLCDYRCIWCQKTVHDECMKNSLKNEKCDFGEFKNLIIPPSYLTSINQMRKDKKTDYEVLASKLGKQWTPLIILANSRSGTNMGEGLLGEFRILLNPVQVFDVTKTPPIKALQLCTLLPYYSARVLVCGGDGTVGWVLDAVDDMKIKGQEKYIPQVAVLPLGTGNDLSNTLGWGTGYAGEIPVAQVLRNVMEADGIKLDRWKVQVTNKGYYNLRKPKEFTMNNYFSVGPDALMALNFHAHREKAPSLFSSRILNKAVYLFYGTKDCLVQECKDLNKKVELELDGERVALPSLEGIIVLNIGYWGGGCRLWEGMGDETYPLARHDDGLLEVVGVYGSFHCAQIQVKLANPFRIGQAHTVRLILKCSMMPMQVDGEPWAQGPCTVTITHKTHAMMLYFSGEQTDDDISSTSDQEDIKATE
# B9: TcC (Trypanosoma cruzi, UniProt Q4DGA3); chain MPREYEFAEKILFTEEEIRTRIMEVAKRIADDYKGKGLRPYVNPLVLISVLKGSFMFTADLCRALSDFNVPVRMEFICVSSYGEGVTSSGQVRMLLDTRHSIEGHHVLIVEDIVDTALTLNYLYHMYFTRRPASLKTVVLLDKREGRRVPFSADYVVANIPNAFVIGYGLDYDDTYRELRDIVVLRPEVYAEREAARQKKQRAIGSADTDRDAKREFHSKY
# B10: pol D141A/E143A (Thermococcus kodakarensis, UniProt P77933); chain 1 MILDTDYITEDGKPVIRIFKKENGEFKIEYDRTFEPYFYALLKDDSAIEEVKKITAERHGTVVTVKRVEKVQKKFLGRPVEVWKLYFTHPQDVPAIRDKIREHPAVIDIYEYDIPFAKRYLIDKGLVPMEGDEELKMLAFAIATLYHEGEEFAEGPILMISYADEEGARVITWKNVDLPYVDVVSTEREMIKRFLRVVKEKDPDVLITYNGDNFDFAYLKKRCEKLGINFALGRDGSEPKIQRMGDRFAVEVKGRIHFDLYPVIRRTINLPTYTLEAVYEAVFGQPKEKVYAEEITTAWETGENLERVARYSMEDAKVTYELGKEFLPMEAQLSRLIGQSLWDVSRSSTGNLVEWFLLRKAYERNELAPNKPDEKELARRRQSYEGGYVKEPERGLWENIVYLDFR; chain 2 SLYPSIIITHNVSPDTLNREGCKEYDVAPQVGHRFCKDFPGFIPSLLGDLLEERQKIKKKMKATIDPIERKLLDYRQRAIKILAN; chain 3 NSYYGYYGYARARWYCKECAESVTAWGREYITMTIKEIEEKYGFKVIYSDTDGFFATIPGADAETVKKKAMEFLKYINAKLPGALELEYEGFYKRGFFVTKKKYAVIDEEGKITTRGLEIVRRDWSEIAKETQARVLEALLKDGDVEKAVRIVKEVTEKLSKYEVPPEKLVIHEQITRDLKDYKATGPHVAVAKRLAARGVKIRPGTVISYIVLKGSGRIGDRAIPFDEFDPTKHKYDAEYYIENQVLPAVERILRAFGYRKEDLRYQKTRQVGLSAWLKPKGT
# Sequence of UniProt Q04049 (whole entry, looked up): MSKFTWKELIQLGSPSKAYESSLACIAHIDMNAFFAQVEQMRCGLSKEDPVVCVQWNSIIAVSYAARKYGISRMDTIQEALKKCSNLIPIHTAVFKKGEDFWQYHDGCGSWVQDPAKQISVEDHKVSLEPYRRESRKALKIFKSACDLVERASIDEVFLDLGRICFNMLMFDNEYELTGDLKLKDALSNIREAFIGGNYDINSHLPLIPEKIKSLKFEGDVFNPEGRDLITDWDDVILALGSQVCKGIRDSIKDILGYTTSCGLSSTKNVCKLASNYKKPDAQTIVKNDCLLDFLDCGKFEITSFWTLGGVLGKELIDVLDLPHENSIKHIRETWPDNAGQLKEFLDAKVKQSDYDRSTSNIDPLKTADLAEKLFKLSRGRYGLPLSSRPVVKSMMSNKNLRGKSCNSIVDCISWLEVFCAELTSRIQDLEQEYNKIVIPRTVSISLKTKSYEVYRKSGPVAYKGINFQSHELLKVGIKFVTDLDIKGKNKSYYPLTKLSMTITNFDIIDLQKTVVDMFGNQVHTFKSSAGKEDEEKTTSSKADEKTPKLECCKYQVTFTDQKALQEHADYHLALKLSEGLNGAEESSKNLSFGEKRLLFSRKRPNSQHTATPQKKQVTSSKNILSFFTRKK
# Sequence of UniProt Q5JTZ9 (whole entry, looked up): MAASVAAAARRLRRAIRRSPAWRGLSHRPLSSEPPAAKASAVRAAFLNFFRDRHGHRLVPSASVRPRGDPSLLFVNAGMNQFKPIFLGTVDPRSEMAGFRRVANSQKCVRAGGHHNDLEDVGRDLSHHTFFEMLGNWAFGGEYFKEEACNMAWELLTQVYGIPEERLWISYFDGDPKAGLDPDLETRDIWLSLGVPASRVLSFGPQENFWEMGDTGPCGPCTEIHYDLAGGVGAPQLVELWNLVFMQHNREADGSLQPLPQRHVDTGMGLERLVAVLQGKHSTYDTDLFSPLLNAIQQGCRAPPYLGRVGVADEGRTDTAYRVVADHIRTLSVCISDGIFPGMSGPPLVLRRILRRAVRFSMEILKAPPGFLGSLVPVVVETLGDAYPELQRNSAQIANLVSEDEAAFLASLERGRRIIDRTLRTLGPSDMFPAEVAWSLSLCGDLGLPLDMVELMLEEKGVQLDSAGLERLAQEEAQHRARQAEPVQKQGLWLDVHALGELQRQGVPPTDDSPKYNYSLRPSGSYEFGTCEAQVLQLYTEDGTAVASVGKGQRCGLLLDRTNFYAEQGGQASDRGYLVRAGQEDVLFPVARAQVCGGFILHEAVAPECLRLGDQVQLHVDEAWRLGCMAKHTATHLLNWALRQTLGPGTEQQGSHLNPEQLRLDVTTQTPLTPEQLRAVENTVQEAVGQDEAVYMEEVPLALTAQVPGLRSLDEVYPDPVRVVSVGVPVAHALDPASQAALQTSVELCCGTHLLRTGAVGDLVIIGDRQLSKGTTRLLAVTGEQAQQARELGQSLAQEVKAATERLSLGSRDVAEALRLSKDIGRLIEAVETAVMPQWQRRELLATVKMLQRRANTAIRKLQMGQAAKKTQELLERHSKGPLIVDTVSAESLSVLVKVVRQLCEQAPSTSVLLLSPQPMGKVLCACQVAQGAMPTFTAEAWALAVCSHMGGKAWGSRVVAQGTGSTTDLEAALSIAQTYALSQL
# Sequence of UniProt P42982 (whole entry, looked up): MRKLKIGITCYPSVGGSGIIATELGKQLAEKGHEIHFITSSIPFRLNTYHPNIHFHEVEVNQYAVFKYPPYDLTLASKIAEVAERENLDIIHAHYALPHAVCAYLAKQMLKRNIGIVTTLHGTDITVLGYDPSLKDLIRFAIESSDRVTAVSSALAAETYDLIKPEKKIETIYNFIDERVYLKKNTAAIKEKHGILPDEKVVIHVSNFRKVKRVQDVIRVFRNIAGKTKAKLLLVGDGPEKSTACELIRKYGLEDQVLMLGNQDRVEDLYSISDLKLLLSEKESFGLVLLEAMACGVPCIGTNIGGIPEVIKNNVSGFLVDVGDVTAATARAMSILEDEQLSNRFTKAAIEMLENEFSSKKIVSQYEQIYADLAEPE
# Sequence of UniProt A1ZAW0 (whole entry, looked up): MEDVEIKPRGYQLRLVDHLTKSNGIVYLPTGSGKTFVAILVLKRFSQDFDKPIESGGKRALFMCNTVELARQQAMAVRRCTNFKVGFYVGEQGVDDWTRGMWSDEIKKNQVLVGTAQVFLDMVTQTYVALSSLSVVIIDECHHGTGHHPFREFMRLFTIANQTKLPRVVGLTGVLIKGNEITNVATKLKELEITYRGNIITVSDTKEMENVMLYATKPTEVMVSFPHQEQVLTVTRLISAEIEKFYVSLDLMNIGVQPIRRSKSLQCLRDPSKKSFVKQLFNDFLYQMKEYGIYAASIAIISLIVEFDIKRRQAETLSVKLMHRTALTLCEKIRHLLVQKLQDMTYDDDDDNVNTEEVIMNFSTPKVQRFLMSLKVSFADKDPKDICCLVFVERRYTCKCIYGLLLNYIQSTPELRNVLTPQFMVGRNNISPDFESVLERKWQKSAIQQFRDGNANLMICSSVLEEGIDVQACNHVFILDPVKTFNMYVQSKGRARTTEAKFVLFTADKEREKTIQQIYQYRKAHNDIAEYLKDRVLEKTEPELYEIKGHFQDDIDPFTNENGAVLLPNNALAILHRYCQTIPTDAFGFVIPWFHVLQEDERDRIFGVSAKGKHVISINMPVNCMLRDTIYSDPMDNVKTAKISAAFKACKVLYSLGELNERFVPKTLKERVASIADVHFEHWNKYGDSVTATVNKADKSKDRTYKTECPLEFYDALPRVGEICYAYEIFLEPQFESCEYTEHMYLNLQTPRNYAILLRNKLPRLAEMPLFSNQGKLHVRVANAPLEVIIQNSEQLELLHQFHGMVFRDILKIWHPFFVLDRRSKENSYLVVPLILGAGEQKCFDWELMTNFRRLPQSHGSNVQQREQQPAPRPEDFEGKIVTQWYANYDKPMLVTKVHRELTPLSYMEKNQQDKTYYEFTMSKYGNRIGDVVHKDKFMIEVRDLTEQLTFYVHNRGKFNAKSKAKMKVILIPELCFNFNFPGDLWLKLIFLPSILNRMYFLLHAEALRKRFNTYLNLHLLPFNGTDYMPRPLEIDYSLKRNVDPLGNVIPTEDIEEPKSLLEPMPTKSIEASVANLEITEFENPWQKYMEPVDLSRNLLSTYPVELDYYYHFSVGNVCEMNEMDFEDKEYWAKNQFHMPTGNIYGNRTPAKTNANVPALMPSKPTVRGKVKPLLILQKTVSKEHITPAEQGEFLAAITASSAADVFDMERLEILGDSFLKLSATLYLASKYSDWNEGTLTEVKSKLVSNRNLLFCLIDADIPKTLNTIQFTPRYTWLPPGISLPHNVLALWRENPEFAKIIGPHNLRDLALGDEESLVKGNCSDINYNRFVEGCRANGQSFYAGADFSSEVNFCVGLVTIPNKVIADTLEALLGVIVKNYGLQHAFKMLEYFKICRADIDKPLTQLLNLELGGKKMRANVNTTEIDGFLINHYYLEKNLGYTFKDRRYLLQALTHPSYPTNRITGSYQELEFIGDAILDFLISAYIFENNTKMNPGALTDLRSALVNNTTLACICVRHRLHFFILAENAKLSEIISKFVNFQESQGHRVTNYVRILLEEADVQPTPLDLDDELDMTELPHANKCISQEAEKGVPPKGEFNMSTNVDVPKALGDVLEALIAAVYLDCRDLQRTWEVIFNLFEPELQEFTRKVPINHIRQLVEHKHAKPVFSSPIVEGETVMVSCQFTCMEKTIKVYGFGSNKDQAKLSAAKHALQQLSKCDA
Molecule,substrate,pH,temperature,setting,with,kcat [s⁻¹]
"RAD30 (Saccharomyces cerevisiae, UniProt Q04049)",Nc1nc2c(ncn2[C@H]2C[C@H](O)[C@@H](COP(=O)(O)OP(=O)(O)OP(=O)(O)O)O2)c(=O)[nH]1,pH 7.5,,"apparent Km, opposite dT, undamaged template, apparent",MgCl2 10 mM,0.00133 ± 8.33e-05
B1 (CDO),N[C@@H](CS)C(=O)O,pH 6.1,37 °C,,"O2, Fe(II)",0.4 ± 0.1
B2 (protein),COc1cc(-c2oc3cc(O)cc(O)c3c(=O)c2O)ccc1O,pH 7.5,35 °C,apparent,UDP-glucose,0.0052 ± 0.00035
"Dcr-2 (Drosophila melanogaster, UniProt A1ZAW0)",Nc1ncnc2c1ncn2[C@@H]1O[C@H](COP(=O)(O)OP(=O)(O)OP(=O)(O)O)[C@@H](O)[C@H]1O,pH 7.4,25 °C,,"dsRNA, magnesium acetate 3.3 mM",1.55 ± 0.233
B3,Nc1ncnc2c1ncn2[C@@H]1O[C@H](COP(=O)(O)OP(=O)(O)OP(=O)(O)O)[C@@H](O)[C@H]1O,pH 7.6,,KCl 100 mM,"glutamine 10 mM, ornithine 10 mM",0.035 ± 0.002
B4 (protein G95D/P94L),O[C@H]1CCCc2ccccc21,pH 7.4,,"phosphate 400 mM, NADPH 250 µM printed","NADP+, reverse reaction",0.28 ± 0.03
"alanine aminopeptidase (Neisseria meningitidis, UniProt Q9JYV4)",NC(=O)Cc1cc(=O)oc2cc(NC(=O)[C@@H](N)Cc3ccc(Cl)cc3)ccc12,pH 7.5,37 °C,,,5.05 ± 0.11
"pyc (Rhizobium etli, UniProt Q2K340)",Nc1ncnc2c1ncn2[C@@H]1O[C@H](COP(=O)(O)OP(=O)(O)OP(=O)(O)O)[C@@H](O)[C@H]1O,pH 7.8,30 °C,no pyruvate,"NaHCO3 20 mM, acetyl CoA 0.25 mM, Mg2+ 5 mM",0.0617 ± 0.0002
B5 (Tcur_2987 W263A),Nc1c(S(=O)(=O)O)cc(Nc2cccc(S(=O)(=O)CCOS(=O)(=O)O)c2)c2c1C(=O)c1ccccc1C2=O,pH 3,,sigmoidal kinetics,H2O2 1 mM,52 ± 1
"Ptb (Listeria monocytogenes, UniProt Q8Y7B7)",CCCCCC(=O)SCCNC(=O)CCNC(=O)[C@H](O)C(C)(C)COP(=O)(O)OP(=O)(O)OC[C@H]1O[C@@H](n2cnc3c(N)ncnc32)[C@H](O)[C@@H]1OP(=O)(O)O,pH 7.5,25 °C,"apparent, poor fit",,47 ± 2.6
B6 (Paox),CC(=O)NCCCNCCCCNCCCN,pH 10,30 °C,,,49 ± 12
B7,NC(=O)C1=CN([C@@H]2O[C@H](COP(=O)(O)OP(=O)(O)OC[C@H]3O[C@@H](n4cnc5c(N)ncnc54)[C@H](O)[C@@H]3O)[C@@H](O)[C@H]2O)C=CC1,pH 7.5,37 °C,per site,,2.9 ± 0.4
B8 (DGKE),CCCCC/C=C\C/C=C\CCCCCCCC(=O)O[C@@H](CO)COC(=O)CCCCCCCCCCCCCCCCC,pH 7.5,25 °C,"mixed micelles, surface mole percent, not purified",0.1 mM ATP; 5 mM MgCl2,4.6 ± 0.6
"AARS2 (Homo sapiens, UniProt Q5JTZ9)",C[C@H](N)C(=O)O,pH 8,37 °C,KCl 20 mM,ATP 4 mM,4.65 ± 0.21
B9 (TcC),O=c1[nH]c(=O)c2[nH]cnc2[nH]1,pH 8.3,37 °C,apparent,"PRPP 1 mM, MgCl2 12 mM",0.008 ± 0.0002
"BshA (Bacillus subtilis, UniProt P42982)",O=C(O)C[C@H](O)C(=O)O,pH 7.5,21 °C,,UDP-GlcNAc 0–4 mM,2.63 ± 0.07
B10 (pol D141A/E143A),Nc1nc2c(ncn2[C@H]2C[C@H](O)[C@@H](COP(=O)(O)OP(=O)(O)OP(=O)(O)O)O2)c(=O)[nH]1,pH 8,55 °C,,,5.9 ± 0.1
